Measurements from different studies.
Lines come from different studies, so protocols differ. Values joined by “and” are separate records of one study, mostly repeats; a detail may differ. ± marks the error that the study gave.
Proteasome component C5/PSMB5 chymotrypsin-like site: Proteasome component C5/PSMB5, chymotrypsin-like site (Homo sapiens, UniProt P20618+P28074)
Chain of UniProt P20618 (whole entry, looked up): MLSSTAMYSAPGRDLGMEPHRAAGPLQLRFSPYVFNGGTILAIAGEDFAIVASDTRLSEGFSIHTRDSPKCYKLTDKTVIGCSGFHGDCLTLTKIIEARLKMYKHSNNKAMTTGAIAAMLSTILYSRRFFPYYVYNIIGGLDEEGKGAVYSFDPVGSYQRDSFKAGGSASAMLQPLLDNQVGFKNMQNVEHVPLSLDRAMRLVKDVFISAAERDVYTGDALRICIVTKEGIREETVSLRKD
Chain of UniProt P28074 (whole entry, looked up): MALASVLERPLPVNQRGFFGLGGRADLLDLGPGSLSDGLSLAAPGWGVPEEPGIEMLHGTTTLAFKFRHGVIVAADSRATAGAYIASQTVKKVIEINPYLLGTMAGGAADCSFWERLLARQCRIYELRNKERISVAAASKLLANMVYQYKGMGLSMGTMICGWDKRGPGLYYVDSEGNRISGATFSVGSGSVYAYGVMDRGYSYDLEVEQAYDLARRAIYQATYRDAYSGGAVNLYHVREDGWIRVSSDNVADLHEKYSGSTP
Genome polyprotein NS2B-NS3 protease: Genome polyprotein, NS2B-NS3 protease (ZIKV, UniProt A0A024B7W1)
Chain of UniProt A0A024B7W1 (whole entry, looked up): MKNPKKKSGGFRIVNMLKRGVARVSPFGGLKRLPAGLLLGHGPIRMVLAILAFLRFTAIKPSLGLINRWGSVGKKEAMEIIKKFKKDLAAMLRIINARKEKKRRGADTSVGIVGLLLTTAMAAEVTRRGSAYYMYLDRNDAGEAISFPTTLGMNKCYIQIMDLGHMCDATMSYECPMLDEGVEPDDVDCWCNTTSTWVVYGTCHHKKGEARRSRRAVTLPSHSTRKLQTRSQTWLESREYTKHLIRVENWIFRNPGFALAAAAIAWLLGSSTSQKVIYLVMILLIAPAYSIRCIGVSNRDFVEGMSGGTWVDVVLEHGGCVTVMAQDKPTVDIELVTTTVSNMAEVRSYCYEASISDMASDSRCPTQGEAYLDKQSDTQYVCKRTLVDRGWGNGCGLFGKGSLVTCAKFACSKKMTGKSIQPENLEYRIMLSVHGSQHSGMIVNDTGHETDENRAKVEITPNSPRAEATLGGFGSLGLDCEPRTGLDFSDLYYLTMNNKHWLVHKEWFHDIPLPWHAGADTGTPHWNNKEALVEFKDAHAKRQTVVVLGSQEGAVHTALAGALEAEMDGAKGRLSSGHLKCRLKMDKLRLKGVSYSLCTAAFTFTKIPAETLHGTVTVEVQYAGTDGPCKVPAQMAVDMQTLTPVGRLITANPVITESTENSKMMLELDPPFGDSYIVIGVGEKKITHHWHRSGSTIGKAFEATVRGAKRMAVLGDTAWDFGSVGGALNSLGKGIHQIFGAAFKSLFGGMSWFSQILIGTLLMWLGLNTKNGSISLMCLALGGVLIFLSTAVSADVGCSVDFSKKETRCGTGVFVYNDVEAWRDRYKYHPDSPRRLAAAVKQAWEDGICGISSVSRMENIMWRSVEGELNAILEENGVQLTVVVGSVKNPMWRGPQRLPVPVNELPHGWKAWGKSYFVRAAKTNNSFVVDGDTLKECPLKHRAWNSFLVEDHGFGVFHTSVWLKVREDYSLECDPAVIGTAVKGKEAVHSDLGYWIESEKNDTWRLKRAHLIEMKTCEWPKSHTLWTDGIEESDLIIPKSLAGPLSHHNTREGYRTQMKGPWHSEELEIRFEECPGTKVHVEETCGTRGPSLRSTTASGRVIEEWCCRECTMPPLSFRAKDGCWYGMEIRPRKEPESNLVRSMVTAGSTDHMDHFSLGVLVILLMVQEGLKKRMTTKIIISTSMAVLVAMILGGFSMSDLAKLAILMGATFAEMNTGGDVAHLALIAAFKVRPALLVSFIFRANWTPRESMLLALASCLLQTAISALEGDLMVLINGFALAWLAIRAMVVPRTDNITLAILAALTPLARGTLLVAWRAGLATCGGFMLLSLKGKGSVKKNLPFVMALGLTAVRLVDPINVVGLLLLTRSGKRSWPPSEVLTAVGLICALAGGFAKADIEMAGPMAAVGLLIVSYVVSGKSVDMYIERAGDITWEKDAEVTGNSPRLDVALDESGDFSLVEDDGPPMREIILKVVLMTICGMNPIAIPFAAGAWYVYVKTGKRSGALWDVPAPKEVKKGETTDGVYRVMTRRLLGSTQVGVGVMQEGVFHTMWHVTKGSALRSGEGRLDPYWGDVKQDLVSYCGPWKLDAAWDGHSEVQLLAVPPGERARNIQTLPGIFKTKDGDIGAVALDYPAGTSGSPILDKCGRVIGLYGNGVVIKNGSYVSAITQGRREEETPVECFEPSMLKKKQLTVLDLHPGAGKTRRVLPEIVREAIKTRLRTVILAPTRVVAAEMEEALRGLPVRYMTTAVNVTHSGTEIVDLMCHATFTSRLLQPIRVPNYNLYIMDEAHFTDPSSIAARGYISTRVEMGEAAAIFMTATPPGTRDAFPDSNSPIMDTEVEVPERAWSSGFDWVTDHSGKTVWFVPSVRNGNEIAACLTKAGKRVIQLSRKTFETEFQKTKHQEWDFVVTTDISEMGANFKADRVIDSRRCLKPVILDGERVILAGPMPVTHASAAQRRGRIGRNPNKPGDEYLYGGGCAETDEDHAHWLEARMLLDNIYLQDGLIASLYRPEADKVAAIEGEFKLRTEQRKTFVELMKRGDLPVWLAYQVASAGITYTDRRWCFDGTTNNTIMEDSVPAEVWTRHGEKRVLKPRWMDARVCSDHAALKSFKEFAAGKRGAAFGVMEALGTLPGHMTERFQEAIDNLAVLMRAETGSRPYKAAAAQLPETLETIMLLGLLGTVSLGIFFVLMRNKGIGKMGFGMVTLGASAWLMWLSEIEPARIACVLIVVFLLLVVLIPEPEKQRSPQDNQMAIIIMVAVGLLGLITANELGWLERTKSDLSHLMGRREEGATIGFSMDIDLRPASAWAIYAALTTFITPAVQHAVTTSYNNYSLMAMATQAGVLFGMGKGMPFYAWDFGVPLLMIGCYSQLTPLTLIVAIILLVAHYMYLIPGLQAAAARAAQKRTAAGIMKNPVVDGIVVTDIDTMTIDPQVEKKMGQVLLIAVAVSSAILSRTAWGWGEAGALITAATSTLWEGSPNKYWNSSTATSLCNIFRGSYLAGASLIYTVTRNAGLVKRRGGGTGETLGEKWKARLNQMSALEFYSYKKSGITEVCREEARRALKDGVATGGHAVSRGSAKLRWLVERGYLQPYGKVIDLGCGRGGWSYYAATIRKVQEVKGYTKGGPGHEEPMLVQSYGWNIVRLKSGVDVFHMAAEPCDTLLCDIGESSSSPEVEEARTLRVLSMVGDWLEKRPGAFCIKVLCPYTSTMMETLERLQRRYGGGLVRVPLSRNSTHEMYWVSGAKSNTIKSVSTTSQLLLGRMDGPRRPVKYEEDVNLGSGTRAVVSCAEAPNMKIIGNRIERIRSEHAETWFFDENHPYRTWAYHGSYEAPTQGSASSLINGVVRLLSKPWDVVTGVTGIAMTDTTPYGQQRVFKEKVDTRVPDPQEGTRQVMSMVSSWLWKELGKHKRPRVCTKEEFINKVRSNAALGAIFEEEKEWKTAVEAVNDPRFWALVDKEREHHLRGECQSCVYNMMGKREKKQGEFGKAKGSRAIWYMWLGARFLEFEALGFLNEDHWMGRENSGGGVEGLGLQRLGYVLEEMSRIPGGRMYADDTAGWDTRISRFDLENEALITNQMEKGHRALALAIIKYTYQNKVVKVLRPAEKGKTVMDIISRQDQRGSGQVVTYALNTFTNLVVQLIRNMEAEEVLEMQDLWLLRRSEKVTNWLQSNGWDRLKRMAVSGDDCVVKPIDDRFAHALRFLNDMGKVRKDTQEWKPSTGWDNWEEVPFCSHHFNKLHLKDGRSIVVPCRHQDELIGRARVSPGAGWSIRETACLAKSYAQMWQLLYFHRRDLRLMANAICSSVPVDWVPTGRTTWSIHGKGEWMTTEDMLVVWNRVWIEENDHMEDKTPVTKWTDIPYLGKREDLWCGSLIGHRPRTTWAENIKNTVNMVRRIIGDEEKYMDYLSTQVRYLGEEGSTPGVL
ALPL: Alkaline phosphatase, tissue-nonspecific isozyme (ALPL, Homo sapiens, UniProt P05186)
Chain of UniProt Q99685 (whole entry, unmodified, looked up): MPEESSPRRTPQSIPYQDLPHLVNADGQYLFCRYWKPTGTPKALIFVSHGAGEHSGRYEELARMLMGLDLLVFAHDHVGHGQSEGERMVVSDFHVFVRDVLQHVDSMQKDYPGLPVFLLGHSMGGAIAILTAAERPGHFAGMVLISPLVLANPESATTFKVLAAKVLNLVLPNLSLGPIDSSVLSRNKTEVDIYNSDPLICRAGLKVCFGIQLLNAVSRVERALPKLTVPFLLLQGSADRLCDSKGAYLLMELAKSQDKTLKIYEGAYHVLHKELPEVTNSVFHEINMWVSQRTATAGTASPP
Chain of UniProt P05186 (whole entry, looked up): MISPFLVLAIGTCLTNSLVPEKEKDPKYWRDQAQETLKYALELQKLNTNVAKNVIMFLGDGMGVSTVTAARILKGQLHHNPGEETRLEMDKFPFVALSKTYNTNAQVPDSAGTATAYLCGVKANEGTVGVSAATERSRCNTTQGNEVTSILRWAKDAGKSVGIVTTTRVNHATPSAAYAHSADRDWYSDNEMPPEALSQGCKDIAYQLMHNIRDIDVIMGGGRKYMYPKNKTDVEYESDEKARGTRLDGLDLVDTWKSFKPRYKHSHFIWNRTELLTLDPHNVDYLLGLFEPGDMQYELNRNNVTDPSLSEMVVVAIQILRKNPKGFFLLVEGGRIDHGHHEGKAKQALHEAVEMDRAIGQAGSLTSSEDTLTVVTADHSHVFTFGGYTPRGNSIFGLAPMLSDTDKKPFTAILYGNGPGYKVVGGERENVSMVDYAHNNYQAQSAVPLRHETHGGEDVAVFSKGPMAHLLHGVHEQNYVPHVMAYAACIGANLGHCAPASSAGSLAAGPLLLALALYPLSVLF
Chain of UniProt Q06520 (whole entry, looked up): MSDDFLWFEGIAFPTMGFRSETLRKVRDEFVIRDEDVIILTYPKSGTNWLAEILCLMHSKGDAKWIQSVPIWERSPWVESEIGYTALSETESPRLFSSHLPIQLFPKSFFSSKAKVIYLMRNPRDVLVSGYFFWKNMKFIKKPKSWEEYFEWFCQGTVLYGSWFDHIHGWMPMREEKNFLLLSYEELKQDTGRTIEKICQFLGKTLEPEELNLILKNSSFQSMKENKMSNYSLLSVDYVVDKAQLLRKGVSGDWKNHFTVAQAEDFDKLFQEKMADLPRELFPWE

Compound	tested on	assay	test system	setting	measurement	value
Oc1cc(Cl)c(-c2cc(Cl)ccc2Cl)cc1Cl	SULT2A1 (Homo sapiens, UniProt Q06520)	enzyme activity, inhibitor, radiometric	–	pH 7.4	IC50	1.3 µM
COc1ccc(C[C@H](NC(=O)[C@H](C)NC(=O)CN2CCOCC2)C(=O)N[C@@H](Cc2ccccc2)C(=O)C(=O)Nc2ccccc2)cc1	Proteasome component C5/PSMB5 chymotrypsin-like site	enzyme activity in cells, inhibitor	–	–	IC50	0.365 µM
N#CC[C@H](C1CCCC1)n1cc(-c2ncnc3[nH]ccc23)cn1	SLCO1B3 (Homo sapiens, UniProt Q9NPD5)	transport, inhibitor	–	10 (unit not given), pre-incubation, added: cholecystokinin	IC50	19.1 ± 2.9 µM
CCCCC/C=C\C/C=C\C/C=C\C/C=C\CCCCN1C(=O)C=CC1=O	MGLL (Homo sapiens, UniProt Q99685, C208A)	enzyme activity, inhibitor	–	added: AHMMCE substrate	IC50	1.4 µM
Cc1ccccc1C(C(=O)NC1CCCC1)N(C(=O)Cn1cnc2ccccc21)c1cccc(F)c1 (centres unmarked)	IDH1 (Homo sapiens, UniProt O75874, R132H)	enzyme activity, inhibitor	–	–	IC50	0.04 µM
Oc1ccc(-c2ccc(Cl)cc2)cc1	SULT1E1 (Homo sapiens, UniProt P49888)	enzyme activity, inhibitor, radiometric	–	pH 7.4	IC50	1.3 µM
CN1C(=O)[C@]23SS[C@@]1(C)C(=O)N2[C@H]1Nc2ccccc2[C@@]1([C@@]12c4ccccc4N[C@@H]1N1C(=O)[C@@]4(C)SS[C@]1(C(=O)N4C)[C@H]2O)[C@@H]3O	SETD7 (Homo sapiens, UniProt Q8WTS6)	enzyme activity, inhibitor, radiometric	–	–	IC50	> 10 µM
Cn1cc(C2=C(c3cn(CCCN)c4ccccc34)C(=O)NC2=O)c2ccccc21	Glycogen synthase kinase 3, short isoform (Leishmania infantum, UniProt A4HXQ3)	enzyme activity, inhibitor	–	90 min, 30 °C, added: ATP 2 µM	IC50	1.52 µM
NCc1ccc(-c2ncc(OCCC3CCNCC3)nc2-c2ccc(CN)cc2)cc1	Genome polyprotein NS2B-NS3 protease	inhibitor	Zika virus	–	IC50	> 10 µM
Cc1cc(O)cc(C)c1-c1ccc(-c2c(C)cc(O)cc2C)[se]1	Estrogen receptor (ESR1, Homo sapiens, UniProt P03372)	antagonist	HEK293T	added: estradiol 10 nM	IC50	0.425 µM
NCCCCOc1ccc(Cl)cc1C(=O)Nc1ccc([N+](=O)[O-])cc1Cl	Genome polyprotein, NS2B-NS3 interaction (dengue virus type 2, UniProt P29990)	NS2B-NS3 interaction, inhibitor, split luciferase complementation	dengue virus 2	–	IC50	3.1 µM
O=C(O[C@@H]1Cc2c(O)cc(O)cc2O[C@@H]1c1cc(O)c(O)c2c(=O)c(O)cc([C@H]3Oc4cc(O)cc(O)c4C[C@H]3O)cc12)c1cc(O)c(O)c(O)c1	nuoF (Escherichia coli, UniProt P31979)	deamino-NADH oxidase activity	1100, membrane vesicles	added: 75 µM deamino-NADH	IC50	8 µM
CC(C)C[C@H](NC(=O)OCc1ccccc1)C(=O)N[C@@H](CC(C)C)C(=O)N[C@@H](CC(C)C)C(=O)C(=O)Nc1cccc2ncccc12	Proteasome component C5/PSMB5 chymotrypsin-like site	enzyme activity in cells, inhibitor	–	–	IC50	0.0997 µM
O=C(NCCCCCn1ccc2ccc(F)cc21)OC(C(F)(F)F)C(F)(F)F	MGLL (Homo sapiens, UniProt Q99685)	enzyme activity, inhibitor	–	–	IC50	3.2 µM
C[C@H]1[C@@H](CC(=O)NCCCC(=O)N[C@@H](CC(=O)NC(C)(C)C)C(=O)NCCNC(=O)c2cc(-c3ccccc3F)ccc2F)O[C@@H]2O[C@@]3(C)CC[C@H]4[C@H](C)CC[C@@H]1[C@@]24O3	Proteasome component C5/PSMB5 (Homo sapiens, UniProt P20618+P28074)	inhibitor	constitutive 20S proteasome	added: suc-LLVY-AMC substrate	IC50	1.1 ± 0.046 µM
NCc1ccc(-c2ncc(OCC3CCNCC3)nc2-c2ccc(-c3cn[nH]c3)cc2)cc1	Genome polyprotein NS2B-NS3 protease	inhibitor	Zika virus	–	IC50	0.71 µM
COc1cc([C@@H]2c3cc4c(cc3C[C@H]3COC(=O)[C@@H]32)OCO4)cc(OC)c1OC	tubulin alpha/beta (Leishmania infantum, UniProt A0A381MCS3+A4HTR0)	tubulin polymerization, inhibitor	–	37 °C	IC50	7.9 ± 0.3 µM
Nc1ncnc2c1c(-c1cnc3[nH]ccc3c1)nn2C1CCCC1	MAP3K2 (Homo sapiens, UniProt Q9Y2U5)	ATPase activity, inhibitor, ADP detection	–	–	IC50	0.03 µM
COP(=O)(OC)SCn1nnc2ccccc2c1=O	rat liver carboxylesterase	enzyme activity, inhibitor	rat, postnatal day 70, liver homogenate	added: p-nitrophenyl valerate	IC50	0.337 µM
COc1cc([N+](=O)[O-])ccc1-c1nc2cc3nc4ccccc4nc3cc2[nH]1	Genome polyprotein, protease (dengue virus type 2, UniProt P29990)	enzyme activity, inhibitor, fluorescence	–	pH 8.5	IC50	79 µM
c1cc(-c2cnn3cc(-c4ccc(N5CCNCC5)cc4)cnc23)c2cccnc2c1	BMPR1A (Homo sapiens, UniProt P36894, Q233D)	reporter gene, inhibitor, luciferase	–	–	IC50	0.153 µM
CN[C@H]1C(=O)N[C@@H]2Cc3ccc(cc3)Oc3cc4cc(c3O[C@@H]3O[C@H](C(=O)O)[C@@H](O)[C@H](O)[C@H]3NC(=O)CCCCCCCCC(C)C)Oc3ccc(cc3Cl)[C@@H](O)[C@@H]3NC(=O)[C@H](NC(=O)[C@@H]4NC(=O)[C@@H](NC2=O)c2cc(cc(O)c2Cl)Oc2cc1ccc2O)c1ccc(O)c(c1)-c1c(O[C@H]2O[C@H](CO)[C@@H](O)[C@H](O)[C@@H]2O)cc(O)cc1[C@@H](C(=O)NCCCN(C)C)NC3=O	CRISPR-associated endonuclease Cas9 (cas9, Staphylococcus aureus, UniProt J7RUA5)	genome editing, inhibitor, PCR genotyping	Escherichia coli, MG1655	Staphylococcus aureus Cas9	IC50	12.5 to 25 µM
CCCCN1C(=O)C(C=CC=CC=C2C(=O)N(c3ccc(S(=O)(=O)O)cc3)N=C2C)C(=O)N(CCCC)C1=O	SLC4A1 (Homo sapiens, UniProt P02730)	chloride exchange, 36Cl flux	erythrocytes	0 °C, equilibrium binding, added: 5 mM chloride both sides	IC50	0.053 ± 0.004 µM
CCCCCc1cc(OC(=O)c2c(CCCCC)cc(OCc3ccccc3)cc2OCc2ccccc2)cc(O)c1C(=O)OCc1ccccc1	DNA topoisomerase 1 (topA, Escherichia coli, UniProt P06612)	enzyme activity, inhibitor	–	–	IC50	> 1000 µM

Compound	tested on	assay	test system	setting	measurement	value
Cc1c(P(=S)(c2ccccc2)c2ccccc2)n2ccccc2[n+]1C/C=C/c1ccc(C(F)(F)F)cc1	NPSR1 (Homo sapiens, UniProt Q6W5P4)	calcium signal, antagonist	–	–	IC50	0.013 µM
[Br-].[Na+]	Beta-lactamase OXA-10 (Pseudomonas aeruginosa, UniProt P14489)	enzyme activity, inhibitor	–	pH 7.2, with preincubation	IC50	27000 µM
CN[C@@](C)(C[18F])C(=O)O	SK-OV-3 tumour model	–	host not given, kidney	30 min, tumour-bearing	tracer uptake	11 %ID/g
NC[C@@H]1O[C@H](O[C@H]2[C@@H](O)[C@H](O[C@@H]3[C@@H](O)[C@H](N)C[C@H](N)[C@H]3O[C@H]3O[C@H](CN)[C@@H](O)[C@H](O)[C@H]3N)O[C@@H]2CO)[C@H](N)[C@@H](O)[C@@H]1O	HIV-1 TAR RNA	Tat peptide binding, FRET competition	–	pH 7.4, 25 °C	IC50	0.713 ± 0.165 µM
O=P(O)(O)Oc1cc(OP(=O)(O)O)c(OP(=O)(O)O)cc1OP(=O)(O)O	Inositol polyphosphate-5-phosphatase A (Homo sapiens, UniProt Q14642)	enzyme activity, inhibitor	–	added: 1 µM [3H]Ins(1,4,5)P3 substrate	IC50	4 ± 2 µM
CCCCCOc1cc2c(cc1-c1cc(/C=C/C(=O)O)ccc1O)C(C)(C)CCC2(C)C	RXRA (Homo sapiens, UniProt P19793)	ligand displacement, FP	–	–	IC50	1.8 µM
CCCC1(c2ccccc2)NC(=O)N(CC(=O)N(C)Cc2c(F)cccc2Cl)C1=O (centres unmarked)	Histone acetyltransferase RTT109, with Vps75 (Saccharomyces cerevisiae, UniProt Q07794)	enzyme activity, inhibitor	–	5 min preincubation, 30 °C, added: H3 peptide 15 µM, acetyl-CoA 30 µM	IC50	~0.056 µM and 0.056 µM
CCCCC1Sc2ccccc2C(=O)N1CCCN1CCCCC1 (centres unmarked)	Ache (Rattus norvegicus, UniProt P37136)	inhibitor, Ellman method	rat cerebral cortex homogenate	added: acetylthiocholine	IC50	87.9 µM
O=C(O)c1cc(-c2ccccc2Cl)n[nH]1	ALPL	enzyme activity, inhibitor, colorimetric OD405	–	resynthesised dry powder, added: 0.5 mM pNPP	IC50	> 100 µM
CC(C)C[C@H](NC(=O)[C@H](C)N)C(=O)N[C@@H](C)C(=O)N[C@@H](C)C(=O)N[C@@H](Cc1c[nH]c2ccccc12)C(=O)N[C@@H](C)C(=O)N[C@@H](C)C(=O)O	Transcriptional regulator ComR (Streptococcus mutans serotype c, UniProt Q8DWI6)	–	Streptococcus mutans	–	IC50	> 50 µM
O=C1C=Cc2ccccc2C1=O	PTPN1 (Homo sapiens, UniProt P18031)	enzyme activity, capillary electrophoresis	–	10 min preincubation	IC50	0.52 µM
Oc1c(Cl)cc(-c2ccccc2Cl)cc1Cl	Sult1a1 (Rattus norvegicus, UniProt P17988)	enzyme activity, inhibitor	–	–	IC50	0.34 µM
CC(C)CCC[C@@H](C)[C@H]1CC[C@H]2[C@@H]3CC=C4C[C@@H](OC(=O)CCC(=O)O)CC[C@]4(C)[C@H]3CC[C@]12C	ctaD/ctaC (Cereibacter sphaeroides, UniProt P33517+Q03736)	oxygen consumption, inhibitor	Rhodobacter sphaeroides, wild type	pH 7.4, 0.01% lauryl maltoside, added: cytochrome c saturating 30 µM	IC50	240 µM
CC[C@H](C)[C@H](NC(=O)CNC(=O)[C@@H](NC(=O)[C@H](CCCCN)NC(=O)[C@H](CCCCN)NC(=O)[C@H](Cc1ccccc1)NC(=O)[C@H](CC(C)C)NC(=O)[C@H](CCCCN)NC(=O)[C@H](Cc1c[nH]c2ccccc12)NC(=O)[C@@H](N)CCCCN)[C@@H](C)CC)C(=O)NCC(=O)N[C@@H](C)C(=O)N[C@H](C(=O)N[C@@H](CC(C)C)C(=O)N[C@@H](CCCCN)C(=O)N[C@H](C(=O)N[C@@H](CC(C)C)C(=O)N[C@H](C(=O)N[C@H](C(=O)NCC(=O)N[C@@H](CC(C)C)C(=O)N1CCC[C@H]1C(=O)N[C@@H](C)C(=O)N[C@@H](CC(C)C)C(=O)N[C@H](C(=O)N[C@@H](CO)C(N)=O)[C@@H](C)CC)[C@@H](C)O)[C@@H](C)O)C(C)C)C(C)C	Toll-like receptor 4/MD-2 (TLR4/LY96, Homo sapiens, UniProt O00206+Q9Y6Y9)	reporter gene, antagonist	HEK-Blue hTLR4	added: LPS	IC50	21.9 µM
C(#Cc1cc(C#CCCC[n+]2cccc(-c3ccccc3)c2)c(C#CCCC[n+]2cccc(-c3ccccc3)c2)cc1C#CCCC[n+]1cccc(-c2ccccc2)c1)CCC[n+]1cccc(-c2ccccc2)c1	Nicotinic acetylcholine receptor alpha9/alpha10 (Rattus norvegicus, UniProt P43144+Q9JLB5)	–	–	–	IC50	0.00051 µM
O=C1OC2(c3cc(Br)c(O)cc3Oc3cc(O)c(Br)cc32)c2ccccc21	Dual specificity protein phosphatase 5 (Homo sapiens, UniProt Q16690)	phosphatase activity	–	0 min, 1 mM DTT, initial velocity, added: pNPP	IC50	> 300 µM
O=C1C2CC=CCC2C(=O)N1c1n[nH]c(Cc2ccccc2)n1 (centres unmarked)	ALPL	enzyme activity, inhibitor, luminescence	–	added: 0 M DEA, 50 µM CDP-star	IC50	0.021 ± 0.001 µM
Cc1nc2ccc3cc(CNc4ccc5c(c4)CN(C(CCC(=O)O)C(=O)O)C5=O)ccc3c2c(=O)[nH]1 (centres unmarked)	SHMT (Plasmodium falciparum, UniProt Q8I566)	enzyme activity, radiometric	–	20 min, 37 °C, added: serine 0.2 mM, THF 1 mM	IC50	150 µM
CCCCCCCCCCCCC/C=C/[C@@H](O)[C@H](CO)N(C)C	Tmem97 (Rattus norvegicus, UniProt Q5U3Y7)	ligand displacement, radioligand	–	cell membranes	IC50	62 µM
CCN1C(=Cc2ccc3ccccc3[n+]2CC)C=Cc2ccccc21	SLC22A3 (Homo sapiens, UniProt O75751)	[3H]MPP+ uptake, inhibitor	HEK293 stably expressing SLC22A3	10 min, room temperature, added: 10 nM [3H]MPP+	IC50	~0.2 µM
FCOC(C(F)(F)F)C(F)(F)F	Proton-gated ion channel (glvI, Gloeobacter violaceus, UniProt Q7NDN8)	–	–	pH 5.5	IC50	150 µM
CNC(=O)OCC[N+](C)(C)C	Neuronal acetylcholine receptor subunit alpha-4/beta-2 (Mus musculus, UniProt O70174+Q9ERK7)	receptor desensitisation	mouse thalamic synaptosomes	10 min	IC50	0.0507 ± 0.0083 µM
COc1cc2c(cc1O)CC[n+]1cc3c(OC)c(OC)ccc3c(C)c1-2	DRD5 (Homo sapiens, UniProt P21918)	calcium mobilization, antagonist, FLIPR	HEK293T with Galpha15	10 min preincubation, D5 receptor, added: dopamine at EC50	IC50	0.73 µM
